Assay results pooled from the literature.
Values joined by “and” are separate records of one study, mostly repeats; a detail may differ. ± marks the error that the study gave.
CDK2 with cyclin A: Cyclin-dependent kinase 2, with cyclin A (CDK2, Homo sapiens, UniProt P24941)
CALM1 Ca2+-bound C-lobe: Calmodulin-1, Ca2+-bound C-lobe (CALM1, Homo sapiens, UniProt P0DP23)
WD repeat-containing protein 91 WD40 domain, residues 392–747: WD repeat-containing protein 91, WD40 domain, residues 392–747 (Homo sapiens, UniProt A4D1P6)
Genome polyprotein NS3 helicase domain: Genome polyprotein, NS3 helicase domain (Hepatitis C virus genotype 1b, UniProt Q9WMX2)

`C[S+](CC[C@H](N)C(=O)O)C[C@H]1O[C@@H](n2cnc3c(N)ncnc32)[C@H](O)[C@@H]1O` (stereo partly shown) gave a Km of 15 ± 3 µM (PolH (Streptomyces cacaoi); substrate; pH 7.6, 25 °C, anaerobic, added: EP-UMP 250 µM).
`CC(C)C[C@H](NC(=O)C[C@H](O)[C@H](CC(C)C)NC(=O)[C@H](Cc1c[nH]cn1)NC(=O)CNC(=O)[C@@H](NC(=O)[C@H](C)NC(=O)[C@H](Cc1c[nH]c2ccccc12)NC(=O)[C@H](CCC(N)=O)NC(=O)[C@@H](Cc1ccccc1)NC(=O)COCCOCCNC(=O)CCC(C(=O)O)N1CCN(CC(=O)O)CCN(CC(=O)O)CC1)C(C)C)C(N)=O` (stereo partly shown) [lutetium-177 labelled] gave a tissue uptake of 2.7 ± 0.4 %ID/g (female BALB/c nu/nu mice, stomach; intravenous, 50 pmol, 1 h).
`N=C(N)N` has a product formation of 1.36 µM (N-alpha-acetyltransferase 80 (NAA80, Homo sapiens, UniProt Q93015); substrate, DTNB; 2 mM, 30 min, 37 °C, added: acetyl-CoA 500 µM).
The normalized current of `Nc1ncnc2c1ncn2[C@@H]1O[C@H](COP(=O)(O)OP(=O)(O)OP(=O)(O)O)[C@@H](O)[C@H]1O` is reported as 0.0182 and 0.0162 and 0.0234 (P2X purinoceptor 7 (P2rx7, Rattus norvegicus, UniProt Q64663, I214A/Q143A/R125A); ion current, agonist, two-electrode voltage clamp; Xenopus oocytes; 33.3 µM).
`Nc1ncnc2c1ncn2[C@@H]1O[C@H](COP(=O)(O)CP(=O)(O)OP(=O)(O)O)[C@@H](O)[C@H]1O` has a calcium influx of 100% and 92.2% (P2X purinoceptor 1 (P2RX1, Homo sapiens, UniProt P51575, L218T); calcium influx; 10 µM; relative to: ionomycin response).
`O=Cc1c(O)cc(C(F)(F)F)cc1C(F)(F)F`: “pseudo-first-order rate constant” 0 h⁻¹ (reaction with N-acetyl-lysine, HPLC-MS; pH 10.2, added: N-α-acetyl-lysine).
`Cn1cc(-c2ccc(-c3cncc(Cl)c3N3CCC4(CCNC4=O)CC3)cc2)cn1`: “log2 fold change” 3.47 (COLO 205; gene expression, microarray, item: ASS1 mRNA; concentration not given, 2 h; relative to: untreated cells).
With `Cc1cccc(N2CC(C(=O)O)CC2=O)c1` (stereo not shown) the fold enrichment was 1.42 (SPRY domain-containing SOCS box protein 2, SPRY domain (Homo sapiens, UniProt Q99619); binding, affinity selection mass spectrometry; relative to: other proteins in batch).
For `COc1ccc(NC(=O)CN2CCOCC2)c([N+](=O)[O-])c1`, the Kd was over 100 µM (CDK2 with cyclin A).
For `O=O`, the apparent kcat was 0.683 ± 0.0833 s⁻¹ (HIF1AN (Homo sapiens, UniProt Q9NWT6, Y93A); enzyme activity, substrate, rates, initial, MALDI-TOF MS; varied, pH 7.00, 37.0 °C, Y93A, added: CTAD peptide 80 µM, 2-oxoglutarate 100 µM).
With `CC[C@H](C)[C@H](NC(=O)[C@H](CCSC)NC(=O)[C@H](CCSC)NC(=O)[C@H](C)NC(=O)[C@H](C)NC(=O)[C@H](Cc1ccc(O)cc1)NC(=O)[C@@H](NC(=O)[C@H](CCCCN)NC(=O)CNC(=O)[C@@H](NC(=O)[C@@H](NC(=O)[C@H](CCSC)NC(=O)[C@H](Cc1c[nH]cn1)NC(=O)CN)[C@@H](C)O)C(C)C)[C@@H](C)CC)C(=O)N[C@@H](C)C(=O)N[C@@H](CCC(=O)O)C(=O)N[C@@H](Cc1ccc(O)cc1)C(=O)N[C@@H](Cc1ccc(O)cc1)C(=O)N[C@@H](CCCNC(=N)N)C(=O)N[C@@H](CCC(N)=O)C(=O)N[C@@H](CO)C(=O)N[C@@H](CCCCN)C(=O)N[C@@H](C)C(=O)N[C@@H](CCCCN)C(=O)N[C@@H](CCCCN)C(=O)N[C@@H](CC(C)C)C(=O)N[C@@H](CCC(N)=O)C(=O)N[C@@H](C)C(=O)N[C@@H](CCSC)C(=O)N[C@@H](CCCNC(=N)N)C(=O)O` the stoichiometry was 0.93 ± 0.05 (CALM1 Ca2+-bound C-lobe; binding, isothermal titration calorimetry; pH 7.4, 15 °C, Ca2+-bound C-lobe, added: CaV2.1 IQ peptide).
`C[S+](CC[C@H](N)C(=O)[O-])C[C@H]1O[C@@H](n2cnc3c(N)ncnc32)[C@H](O)[C@@H]1O` (stereo partly shown) gave an apparent Km of 10.1 ± 0.4 µM (KMT2C (Homo sapiens, UniProt Q8NEZ4); substrate, enzyme-coupled methylation; added: H3 peptide 100 µM).
For `CCN1CCC[C@H]1CNC(=O)c1c(O)c(Cl)cc(Cl)c1OC`, “log2 fold change” read -0.109 (Probable G-protein coupled receptor 45 (GPR45, Homo sapiens, UniProt Q9Y5Y3); β-arrestin recruitment, TANGO luminescence, item: GPR45; concentration not given; relative to: basal luminescence).
`CC(C)C[C@H](NC(=O)C[C@H](O)[C@H](CC(C)C)NC(=O)[C@H](Cc1c[nH]cn1)NC(=O)CNC(=O)[C@@H](NC(=O)[C@H](C)NC(=O)[C@H](Cc1c[nH]c2ccccc12)NC(=O)[C@H](CCC(N)=O)NC(=O)[C@@H](Cc1ccccc1)NC(=O)COCCOCCNC(=O)CCC(C(=O)O)N1CCN(CC(=O)O)CCN(CC(=O)O)CCN(CC(=O)O)CC1)C(C)C)C(N)=O` (stereo partly shown) [lutetium-177 labelled] gave a tissue uptake of 0.03 ± 0.02 %ID/g (female BALB/c nu/nu mice, stomach; intravenous, 50 pmol, 24 h).
`CC[C@H](C)[C@H](NC(=O)[C@H](C)NC(=O)[C@H](CCSC)NC(=O)[C@H](C)NC(=O)[C@H](C)NC(=O)[C@H](Cc1ccc(O)cc1)NC(=O)[C@@H](NC(=O)[C@H](CCCCN)NC(=O)CNC(=O)[C@@H](NC(=O)[C@@H](NC(=O)[C@H](CCSC)NC(=O)[C@H](Cc1c[nH]cn1)NC(=O)CN)[C@@H](C)O)C(C)C)[C@@H](C)CC)C(=O)N[C@@H](CCSC)C(=O)N[C@@H](CCC(=O)O)C(=O)N[C@@H](Cc1ccc(O)cc1)C(=O)N[C@@H](Cc1ccc(O)cc1)C(=O)N[C@@H](CCCNC(=N)N)C(=O)N[C@@H](CCC(N)=O)C(=O)N[C@@H](CO)C(=O)N[C@@H](CCCCN)C(=O)N[C@@H](C)C(=O)N[C@@H](CCCCN)C(=O)N[C@@H](CCCCN)C(=O)N[C@@H](CC(C)C)C(=O)N[C@@H](CCC(N)=O)C(=O)N[C@@H](C)C(=O)N[C@@H](CCSC)C(=O)N[C@@H](CCCNC(=N)N)C(=O)O` gave a stoichiometry of 0.88 ± 0.16 (CALM1 Ca2+-bound C-lobe; binding, isothermal titration calorimetry; pH 7.4, 15 °C, Ca2+-bound C-lobe, added: CaV2.1 IQ peptide).
`COc1c(C#N)cccc1CC(=O)Nc1ccc2c(c1)CCCN2C(=O)c1ccccc1` has a binding of 126% and 118% (WD repeat-containing protein 91 WD40 domain, residues 392–747; SPR; 45 µM).
The selectivity ratio of `O=c1cc(-c2ccc(O)cc2)oc2c([C@@H]3O[C@H](CO)[C@@H](O)[C@H](O)[C@H]3O)c(O)cc(O)c12` is reported as 8.48 (Estrogen receptor (ESR1, Homo sapiens, UniProt P03372); array formation; PRL-HeLa; relative to: EC50 ERβ over EC50 ERα).
With `Cn1cc(-n2cnc3c(NCc4nc5cc(Cl)c(Cl)cc5[nH]4)nc(N4CCOCC4)nc32)cn1` the inhibition was 91.5% (Cyclin-dependent kinase 12, with cyclin K (CDK12, Homo sapiens, UniProt Q9NYV4); kinase activity, inhibitor, ADP-Glo; 2 µM).
For `COCCOCc1ccc(-c2cc3onc(-c4ccccc4)c3c(=O)n2C)cc1`, the activation was 1.19 ± 0.25 fold (Nuclear receptor subfamily 4 group A member 3, ligand-binding domain (Homo sapiens, UniProt Q92570); reporter gene, Gal4 hybrid reporter; 1 µM; relative to: vehicle).
For `FC(F)=Cc1cc(C(F)(F)F)cc(C(F)(F)F)c1`, “pseudo-first-order rate constant” read 0.5 h⁻¹ (reaction with N-acetyl-lysine, HPLC-MS; pH 10.2, added: N-α-acetyl-lysine).
`CCN1CCCC1CNC(=O)c1cc(S(N)(=O)=O)ccc1OC` (stereo not shown) has a maximal inhibition of 99 ± 2% (DRD3 (Homo sapiens, UniProt P35462); cAMP accumulation, antagonist, BRET CAMYEL).
For `N#CC1CCN(C(=O)c2ccc(-c3cccc4cccnc34)cc2)CC1`, the SPR response was -12.6 RU and -13.5 RU (WD repeat-containing protein 91 WD40 domain, residues 392–747; binding, SPR single-concentration screen; 45 µM).
The inhibition of `CCc1c(C(=O)NCCc2ccc(N3CCCCC3)cc2)[nH]c2ccc(Cl)cc12` is reported as 0% (Genome polyprotein NS3 helicase domain; DNA binding, inhibitor; hepatitis C virus; 100 µM, added: Cy5-dT15 DNA).
With `CC12CC3CC(C)(C1)CC(N)(C3)C2` the potentiation was 84% (Glutamate receptor 2 (Homo sapiens, UniProt P42262); ion current, positive allosteric modulator, SyncroPatch patch clamp; HEK293; 10 µM).
`CN(C)C(=O)C(CCN1CCC(O)(c2ccc(Cl)cc2)CC1)(c1ccccc1)c1ccccc1` has a Hill coefficient of 0.755 ± 0.079 (Calcium-activated potassium channel subunit alpha-1, with LRRC26 γ1 subunit (KCNMA1, Homo sapiens, UniProt Q12791); BK channel conductance, inside-out patch clamp; BKα/γ1, Vm 70 mV, nominally Ca2+-free).
The association constant of `CO[C@H]1O[C@H](COS(=O)(=O)O)[C@@H](O[C@@H]2O[C@@H](C(=O)O)[C@@H](O[C@H]3O[C@H](COS(=O)(=O)O)[C@@H](O[C@@H]4O[C@H](C(=O)O)[C@@H](O[C@H]5O[C@H](COS(=O)(=O)O)[C@@H](O)[C@H](O)[C@H]5NS(=O)(=O)O)[C@H](O)[C@H]4O)[C@H](OS(=O)(=O)O)[C@H]3NS(=O)(=O)O)[C@H](O)[C@H]2OS(=O)(=O)O)[C@H](O)[C@H]1NS(=O)(=O)O` is reported as 226000 ± 18600 M⁻¹ (Beta-2-glycoprotein 1, domain V (APOH, Homo sapiens, UniProt P02749, V266L); isothermal titration calorimetry; 298 K, added: 50 mM NaCl).
`NC(=O)c1cccc(C#CCN(CC[C@H](N)C(=O)O)C[C@H]2O[C@@H](n3cnc4c(N)ncnc43)[C@H](O)[C@@H]2O)c1`: Tagg shift “no effect” (7SK snRNA methylphosphate capping enzyme (MEPCE, Homo sapiens, UniProt Q7L2J0); cellular thermal shift; HeLa cell lysate; 50 µM; relative to: DMSO).
`NCCCCC(=O)O`: “normalised MST signal” -0.00523 (SLC6A6 (Homo sapiens, UniProt P31641, G62A); binding, microscale thermophoresis; 31.3 µM, room temperature, added: 50 nM labelled protein; higher = more binding).
`Nc1ncnc2c1ncn2[C@@H]1O[C@H](COP(=O)(O)OP(=O)(O)O)[C@@H](O)[C@H]1O` gave a ΔH of -0.129 kcal/mol (GUK1 (Homo sapiens, UniProt Q16774); ITC; molar ratio 3.279).
The inhibition of `CC(N)=O` is reported as 0% (Genome polyprotein NS3 helicase domain; DNA binding, inhibitor; hepatitis C virus; 100 µM, added: Cy5-dT15 DNA).
`N#Cc1cccc(OCc2cn(-c3ccc(C(=O)N4CCC(C#N)CC4)cc3)nn2)c1` gave a binding of 22% and 35% (WD repeat-containing protein 91 WD40 domain, residues 392–747; SPR; 45 µM).
For `C/C(=C\c1ccc(C(=O)O)cc1)c1ccc2c(c1)C(C)(C)CCC2(C)C`, the inhibition was 0% (Genome polyprotein NS3 helicase domain; DNA binding, inhibitor; hepatitis C virus; 100 µM, added: Cy5-dT15 DNA).
With `C=C1[C@@H]2CC[C@@H](C2)[C@@]1(C)CC/C=C(/C)CO` the displacement was under 16% (CNR1 (Homo sapiens, UniProt P21554); radioligand binding; 10 µM).
With `Cc1ccc(C(=O)Nc2ccc(S(=O)(=O)O)c3cc(S(=O)(=O)O)cc(S(=O)(=O)O)c23)cc1NC(=O)c1cccc(NC(=O)Nc2cccc(C(=O)Nc3cc(C(=O)Nc4ccc(S(=O)(=O)O)c5cc(S(=O)(=O)O)cc(S(=O)(=O)O)c45)ccc3C)c2)c1` the inhibition was 96% (Genome polyprotein NS3 helicase domain; DNA binding, inhibitor; hepatitis C virus; 100 µM, added: Cy5-dT15 DNA).
`CCc1nnc(NS(=O)(=O)c2ccc(NC(=O)c3ccc(F)cc3)cc2)s1` gave a Kd of over 100 µM (CDK2 with cyclin A).
`CC[N+](CC)(CC)CC` has an inhibition of 14% (Genome polyprotein NS3 helicase domain; 100 µM).
For `CNCc1ccc(-c2[nH]c3cc(F)cc4c3c2CCNC4=O)cc1`, “AST/ALT increased incidence” read 33.3% (human patients; oral, 840 mg twice daily, all grades).

For quick reference, copied from above:
`Nc1ncnc2c1ncn2[C@@H]1O[C@H](COP(=O)(O)OP(=O)(O)O)[C@@H](O)[C@H]1O` gave a ΔH of -0.129 kcal/mol (GUK1 (Homo sapiens, UniProt Q16774); ITC; molar ratio 3.279).
The inhibition of `CC(N)=O` is reported as 0% (Genome polyprotein NS3 helicase domain; DNA binding, inhibitor; hepatitis C virus; 100 µM, added: Cy5-dT15 DNA).
`N#Cc1cccc(OCc2cn(-c3ccc(C(=O)N4CCC(C#N)CC4)cc3)nn2)c1` gave a binding of 22% and 35% (WD repeat-containing protein 91 WD40 domain, residues 392–747; SPR; 45 µM).
For `C/C(=C\c1ccc(C(=O)O)cc1)c1ccc2c(c1)C(C)(C)CCC2(C)C`, the inhibition was 0% (Genome polyprotein NS3 helicase domain; DNA binding, inhibitor; hepatitis C virus; 100 µM, added: Cy5-dT15 DNA).
